Assay results of several laboratories.
Compare with care: the assays were run in different laboratories. ± gives the spread as reported. Values after ≈ are worked out from the molar mass of the structure shown.

For `COC(=O)c1c(C)cc(O)c(=O)c(O)c1O`, antiviral activity read “inactive” (herpes simplex virus 1; viral replication; 200 nM).
For `CCCCCCSc1ccc(SCCCCCC)c(O)c(=O)c1O`, the MIC80 was 7 µM (≈ 2.59 µg/mL) (Cryptococcus neoformans; microbial growth, broth dilution; 13 h).
`c1ccc(-c2nc(-c3ccc4ccccc4c3)c[nH]2)cc1` has a worm killing of 0% (Schistosoma mansoni; adult male worms; 10 µM).
`NC(=NO)NCCC[C@H](N)C(=O)O`: viability “no effect” (Schistosoma mansoni; schistosomula; 100 µM, 24 h, 37 °C).
`CC[C@H](C)[C@H](NC(=O)[C@H](CCCN)NC(=O)[C@H](CC(N)=O)NC(=O)[C@H](Cc1c[nH]c2ccccc12)NC(=O)[C@H](Cc1ccccc1)NC(=O)[C@H](CCCN)NC(=O)[C@H](CCCCNC(=N)N)NC(=O)[C@H](CC(C)C)NC(=O)[C@H](Cc1c[nH]c2ccccc12)NC(=O)[C@H](CCCN)NC(=O)[C@H](CCCCNC(=N)N)NC(=O)[C@H](CC(C)C)NC(=O)CNC(C)=O)C(=O)N[C@@H](CCCN)C(=O)N[C@@H](CCCCNC(=N)N)C(N)=O`: “geometric mean MIC” 3.13 µM (Gram-positive bacteria).
For `CC(=O)NC(CC(C)C)C(=O)NC(C=O)CCCN=C(N)N` (stereo not drawn), the inhibition was 75.3 ± 1% (Plasmodium vivax; parasite growth; 100 µM, 40 h).
For `CC(C)(C)c1ccc(NC(=S)N/N=C/c2ccccc2O)cc1`, “MIC fold improvement” read 64 fold (Candidozyma auris; broth microdilution; 922; relative to: hit compound).
With `Fc1ccc2c(c1)c1nc3ccc(Br)cc3c-1cn2Cc1cn(-c2ccccc2I)nn1` the fold change was 3.17 (Giardia duodenalis; UHPLC-Q-TOF-MS, refers to: 19-oxo-eicosanoic acid; trophozoites; IC50, m/z 344.3, retention 11.66 min; relative to: 0.25% DMSO).
Under “MIC geometric mean”, `CC(C)C[C@@H]1NC(=O)[C@H](CCCCN)NC(=O)[C@H](C(C)C)NC(=O)[C@@H]2CCCN2C(=O)[C@@H](Cc2ccc(O)cc2)NC(=O)[C@H](CC(C)C)NC(=O)[C@H](CCCCN)NC(=O)[C@H](C(C)C)NC(=O)[C@@H]2CCCN2C(=O)[C@@H](Cc2ccc(O)cc2)NC1=O` is recorded as 1.2 µg/mL (≈ 0.999 µM) (Gram-positive bacteria; 24 h, 7 strains).
`O=c1c(O)c(SCc2ccccc2)ccc(SCc2ccccc2)c1O` has an MIC80 of 7 µM (≈ 2.68 µg/mL) (Cryptococcus neoformans; microbial growth, broth dilution; 13 h).
`C=C(C)[C@@H]1CC[C@]2(CO)CC[C@]3(C)[C@H](CC[C@@H]4[C@@]5(C)CCCNC(C)(C)[C@@H]5CC[C@]43C)[C@@H]12` has an EC90 of over 6000 nM (Human alphaherpesvirus 1; cytopathic effect; HFF, E-377).
For `O=[N+]([O-])c1ccc(/C=N/N=C/c2ccccc2)s1`, the IC50 was 420 ± 20 nM (Trypanosoma evansi; parasite growth, CellTiter-Glo; Tansui bloodstream form; 72 h).
`CC(C)C[C@H](NC(=O)OCc1ccccc1)C(=O)N[C@@H](C[C@@H]1CCNC1=O)C(O)S(=O)(=O)[O-].[Na+]` (stereo partly drawn): cytopathic effect “inhibited” (Coxsackievirus A10; RD; 5 µM, added 0 to 4 h post infection).
With `CN[C@H](C)C(=O)N[C@H](C(=O)N1CC[C@@H]2Oc3ccc(OC)c(c3)/C=C\NC(=O)[C@H](Cc3ccccc3)NC(=O)[C@H]21)C(C)C` the selectivity index was 26.8 ± 0.54 (porcine epidemic diarrhea virus; Vero cells; relative to: CC50 over EC50).
With `CN[C@H](CC(C)C)C(=O)N[C@H]1C(=O)N[C@@H](CC(N)=O)C(=O)N[C@H]2C(=O)N[C@H]3C(=O)N[C@H](C(=O)N[C@H](C(=O)O)c4cc(O)cc(O)c4-c4cc3ccc4O)[C@H](O)c3ccc(c(Cl)c3)Oc3cc2cc(c3O[C@@H]2O[C@H](CO)[C@@H](O)[C@H](O)[C@H]2O[C@H]2C[C@](C)(NCc3ccc(C(=O)OCCCCCCN(Cc4ccccn4)Cc4ccccn4)cc3)[C@H](O)[C@H](C)O2)Oc2ccc(cc2Cl)[C@H]1O` the regulation factor was 45.7 ± 9.98 (Bacillus subtilis; protein synthesis, refers to: LiaH.3; 168; concentration not given, 10 min, at peak effective concentration; relative to: untreated).
For `C=C(C)[C@@H]1CC[C@]2(C(=O)NC(CO)Cc3ccccc3)CC[C@]3(C)[C@H](CC[C@@H]4[C@@]5(C)CCCNC(C)(C)[C@@H]5CC[C@]43C)[C@@H]12` (stereo partly drawn), the EC90 was over 1200 nM (Human alphaherpesvirus 1; cytopathic effect; HFF, E-377).
For `CC[C@H](C)[C@H](NC(=O)CNC(=O)CNC(=O)[C@H](CO)NC(=O)[C@@H](NC(=O)[C@H](CCCCN)NC(=O)[C@H](CO)NC(=O)[C@@H](N)CC(C)C)[C@@H](C)CC)C(=O)NCC(=O)N1CCC[C@H]1C(=O)N[C@@H](CC(C)C)C(=O)N[C@H](C(=O)N[C@H](C(=O)N1CCC[C@H]1C(=O)N[C@H](C(N)=O)C(C)C)[C@@H](C)CC)C(C)C`, “reduction of proinflammatory cytokines” read under 20% (Clostridioides difficile; Caco-2; concentration not given).
With `CCCCSc1ccc(SCCCC)c(O)c(=O)c1O` the MIC80 was 2.3 µM (≈ 0.723 µg/mL) (Cryptococcus neoformans; microbial growth, broth dilution; 13 h).
For `O=C(Nc1ccccc1Nc1ccccc1)c1cccnc1Br`, the inhibition was 35.2% (Botrytis cinerea; microbial growth; 50 µg/mL).
Under “geometric mean MIC”, `CC[C@H](C)[C@H](NC(=O)[C@H](CCCCN)NC(=O)[C@H](CC(N)=O)NC(=O)[C@H](CC(C)C)NC(=O)[C@H](Cc1ccccc1)NC(=O)[C@H](CCCCN)NC(=O)[C@H](CCCCNC(=N)N)NC(=O)[C@H](CC(C)C)NC(=O)[C@H](CC(C)C)NC(=O)[C@H](CCCCN)NC(=O)[C@H](CCCCNC(=N)N)NC(=O)[C@H](CC(C)C)NC(=O)CNC(C)=O)C(=O)N[C@@H](CCCCN)C(=O)N[C@@H](CCCCNC(=N)N)C(N)=O` is recorded as 3.13 µM (Gram-positive bacteria).
`CC(C)S(=O)(=O)c1ccc(S(=O)(=O)C(C)C)c(O)c(=O)c1O` has an MIC80 of 100 µM (≈ 35 µg/mL) (Cryptococcus neoformans; microbial growth, broth dilution; 13 h).
For `C[C@@H]1C(=O)O[C@@H](C)/C=C/C=C\[C@@H](C)[C@@H]2C=C[C@@H]3C[C@@]4(C)O[C@H]4[C@@H](C)[C@H]3[C@@H]2C(=O)C(Cl)(Cl)C1=O`, the MIC range was 0.0125 to 0.2 µg/mL (≈ 0.0252 to 0.404 µM) (Staphylococcus aureus; MSSA and MRSA clinical isolates).
The worm killing of `Brc1ccc(-c2c[nH]c(-c3ccccn3)n2)cc1` is reported as 25% (Schistosoma mansoni; adult male worms; 25 µM).
Under “gamete formation inhibition”, `Cc1cc(N2CC[C@@](C#N)(C3(C)CC3)C2=O)cc(C(=O)NCc2cc(F)cc(-c3cnn(C)c3)c2)n1` is recorded as “inactive” (Plasmodium falciparum; NF54, stage V gametocytes; 1 µM).
For `O=[N+]([O-])c1ccc(/C=N/N=C/c2ccc(OCc3ccccc3)cc2)s1`, the IC50 was 4600 ± 730 nM (Trypanosoma brucei gambiense; parasite growth, CellTiter-Glo; IL1922 bloodstream form; 72 h).
`C#CCN1CCc2c(n(C(=C)C(=O)OC)c3ccccc23)C(C(=O)OC)C1` (stereo not drawn) has an inhibition of over 95% (Hepatitis B virus; viral replication, inhibitor, qPCR; HePAD38; 5 µM).
`CN(C)CCCSC(=S)N1CCN(C(=O)/C=C/c2coc3ccccc3c2=O)CC1` gave an inhibition of 79% (TMV; virus inactivation; 500 µg/mL, mean).
Under “MIC geometric mean”, `CC(C)C[C@@H]1NC(=O)[C@H](CCCCN)NC(=O)[C@H](C(C)C)NC(=O)[C@@H]2CCCN2C(=O)[C@@H](Cc2ccc(O)cc2)NC(=O)[C@H](CC(C)C)NC(=O)[C@H](CCCCN)NC(=O)[C@H](C(C)C)NC(=O)[C@H](CCCCN)NC(=O)[C@H](CC(C)C)NC(=O)[C@@H]2CCCN2C(=O)[C@@H](Cc2ccc(O)cc2)NC(=O)[C@H](C(C)C)NC(=O)[C@H](CCCCN)NC1=O` is recorded as 7.2 µg/mL (≈ 4.31 µM) (Gram-positive bacteria; 24 h, 7 strains).
`O=[N+]([O-])c1ccc(/C=N/N=C/c2ccc(Cl)cc2)o1` has an IC50 of 1200 ± 240 nM (Trypanosoma brucei gambiense; parasite growth, CellTiter-Glo; IL1922 bloodstream form; 72 h).
With `O=C(Nc1ccccc1Nc1ccccc1)c1cccnc1F` the inhibition was 40.5% (Botrytis cinerea; microbial growth; 50 µg/mL).
The parasitemia of `COc1ccc(S(=O)(=O)NCc2c[nH]nc2-c2cccs2)cc1` is reported as 0.5 ± 1.1% (Plasmodium vivax; reinvasion; 2, human, human red blood cells; 1× EC50, 20 h).
`CC(=O)N[C@H](CCCCN)C(=O)N[C@H](CC(C)C)C(=O)N[C@H](CCCCN)C(=O)N[C@H](CO)C(=O)N[C@H](CC(C)C)C(=O)N[C@H](CC(C)C)C(=O)N[C@H](CCCCN)C(=O)N[C@@H](C(=O)N[C@H](CC(C)C)C(=O)N[C@H](CO)C(=O)N[C@H](CCCCN)C(=O)N[C@H](C)C(=O)N[C@H](CCCCN)C(=O)N[C@H](CCCCN)C(=O)N[C@H](CCCCN)C(=O)N[C@H](CC(C)C)C(=O)N[C@H](CC(C)C)C(=O)N[C@H](CCCCN)C(=O)N[C@@H](C(=O)N[C@H](C)C(=O)N[C@H](CC(C)C)C(=O)N[C@H](CCCCN)C(=O)N[C@H](C)C(=O)N[C@H](CC(C)C)C(=O)N[C@H](CO)C(=O)N[C@H](CCCCN)C(N)=O)[C@H](C)O)[C@H](C)O` gave an MIC of 0.7 µM (Acinetobacter baumannii; 689, Mueller-Hinton broth; 24 h, 37 °C).
The IC50 of `Cc1ccc(/C=N/N=C/c2ccc([N+](=O)[O-])o2)cc1` is reported as 3680 ± 1430 nM (Trypanosoma brucei gambiense; parasite growth, CellTiter-Glo; IL1922 bloodstream form; 72 h).
`O=c1c(O)cccc(Sc2ccccc2)c1O` gave an MIC80 of 1.5 µM (≈ 0.369 µg/mL) (Cryptococcus neoformans; microbial growth, broth dilution; 13 h).
`CC[C@H](C)[C@H](NC(=O)[C@H](CC(C)C)NC(=O)[C@@H](N)CS)C(=O)N[C@@H](CCC(=O)O)C(=O)N[C@@H](Cc1ccc(O)cc1)C(=O)NCC(=O)NCC(=O)N[C@@H](C)C(=O)N[C@@H](CC(=O)O)C(=O)N[C@@H](Cc1ccc(O)cc1)C(=O)N[C@@H](CCCCN)C(=O)N[C@H](C(=O)N[C@H](C(=O)N[C@@H](CC(N)=O)C(=O)N[C@@H](CC(C)C)C(=O)N[C@@H](CCCCN)C(=O)O)[C@@H](C)CC)[C@@H](C)O`: mRNA level “decreased” (infectious bursal disease virus; qRT-PCR, refers to: p65 mRNA; DT40 cells, IBDV-infected; 50 to 100 nM, 12 h; relative to: IBDV-infected untreated).
`CC1(C)S[C@@H]2[C@H](NC(=O)[C@H](NC(=O)C3=C(O)C(c4ccccc4F)NC3=O)c3ccccc3)C(=O)N2[C@H]1C(=O)O` (stereo partly drawn) has an MIC of 12.5 µg/mL (Escherichia coli; broth microdilution; BW25113, Mueller-Hinton broth; 18 h, without clavulanic acid).
`O=[N+]([O-])c1ccc(/C=N/N=C/c2ccc(Br)cc2)o1` has an IC50 of 810 ± 200 nM (Trypanosoma brucei gambiense; parasite growth, CellTiter-Glo; IL1922 bloodstream form; 72 h).
`CC(C)C[C@@H]1NC(=O)[C@H](CCCCN)NC(=O)[C@H](C(C)C)NC(=O)[C@@H]2CCCN2C(=O)[C@@H](Cc2ccc(O)cc2)NC(=O)[C@H](CC(C)C)NC(=O)[C@H](CCCCN)NC(=O)[C@H](C(C)C)NC(=O)[C@H](CCCCN)NC(=O)[C@@H]2CCCN2C(=O)[C@@H](Cc2ccc(O)cc2)NC1=O`: “MIC geometric mean” 3.3 µg/mL (≈ 2.48 µM) (Gram-positive bacteria; 24 h, 7 strains).
Under “inhibition zone diameter”, `Cc1ncc([N+](=O)[O-])n1CCOCc1nnc(SCC(=O)c2ccc(Br)cc2)o1` is recorded as 15 to 20 mm (viridans streptococci; DMSO; 60 µg/mL, 24 h, 37 °C).

For quick reference, copied from above:
Under “inhibition zone diameter”, `Cc1ncc([N+](=O)[O-])n1CCOCc1nnc(SCC(=O)c2ccc(Br)cc2)o1` is recorded as 15 to 20 mm (viridans streptococci; DMSO; 60 µg/mL, 24 h, 37 °C).
Under “MIC geometric mean”, `CC(C)C[C@@H]1NC(=O)[C@H](CCCCN)NC(=O)[C@H](C(C)C)NC(=O)[C@@H]2CCCN2C(=O)[C@@H](Cc2ccc(O)cc2)NC(=O)[C@H](CC(C)C)NC(=O)[C@H](CCCCN)NC(=O)[C@H](C(C)C)NC(=O)[C@H](CCCCN)NC(=O)[C@H](CC(C)C)NC(=O)[C@@H]2CCCN2C(=O)[C@@H](Cc2ccc(O)cc2)NC(=O)[C@H](C(C)C)NC(=O)[C@H](CCCCN)NC1=O` is recorded as 7.2 µg/mL (≈ 4.31 µM) (Gram-positive bacteria; 24 h, 7 strains).
For `CC(=O)NC(CC(C)C)C(=O)NC(C=O)CCCN=C(N)N` (stereo not drawn), the inhibition was 75.3 ± 1% (Plasmodium vivax; parasite growth; 100 µM, 40 h).
With `Fc1ccc2c(c1)c1nc3ccc(Br)cc3c-1cn2Cc1cn(-c2ccccc2I)nn1` the fold change was 3.17 (Giardia duodenalis; UHPLC-Q-TOF-MS, refers to: 19-oxo-eicosanoic acid; trophozoites; IC50, m/z 344.3, retention 11.66 min; relative to: 0.25% DMSO).
